Assay results from different studies.
Each line is one published result; not all experiments were run side by side. Converted amounts (≈) assume the structure as drawn.
Sequence of UniProt Q13470 (whole entry, looked up): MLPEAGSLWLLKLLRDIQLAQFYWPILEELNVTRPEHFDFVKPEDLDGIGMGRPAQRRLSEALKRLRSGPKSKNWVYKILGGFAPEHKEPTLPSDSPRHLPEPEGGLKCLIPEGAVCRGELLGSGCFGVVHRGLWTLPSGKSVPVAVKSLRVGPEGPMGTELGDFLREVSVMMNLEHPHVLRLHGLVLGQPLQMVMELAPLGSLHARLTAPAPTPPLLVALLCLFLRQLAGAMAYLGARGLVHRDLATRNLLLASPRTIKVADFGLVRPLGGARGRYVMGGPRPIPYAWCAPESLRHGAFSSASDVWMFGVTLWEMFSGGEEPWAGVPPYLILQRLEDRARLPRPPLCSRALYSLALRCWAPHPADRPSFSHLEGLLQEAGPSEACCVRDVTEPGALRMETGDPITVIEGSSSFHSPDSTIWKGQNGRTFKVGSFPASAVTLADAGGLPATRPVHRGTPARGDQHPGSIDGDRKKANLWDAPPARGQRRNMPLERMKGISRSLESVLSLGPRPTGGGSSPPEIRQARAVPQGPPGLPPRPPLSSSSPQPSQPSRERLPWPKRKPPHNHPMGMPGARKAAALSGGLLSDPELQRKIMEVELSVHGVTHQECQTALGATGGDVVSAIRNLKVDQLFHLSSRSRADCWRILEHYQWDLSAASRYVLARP

| SMILES | tested on | assay | test system | setting | measurement | value |
| --- | --- | --- | --- | --- | --- | --- |
| C#Cc1ccc(C(=O)NN=Cc2c(O)cccc2C#C)cc1 | Aspergillus fumigatus | microbial growth | – | 48 h, pH 6.5 | MIC80 | > 32 µg/mL |
| Oc1c(Cl)cc(Cl)cc1-c1[nH]c(Cl)c(Cl)c1Cl | Escherichia coli | microbial growth | K12, MG1655 | – | MIC | 5.33 µM |
| CC(C)[C@H]1NC(=O)[C@H](Cc2ccccc2)NC(=O)[C@@H](Cc2c[nH]c3ccccc23)NC(=O)[C@H](CCCNC(=N)N)NC(=O)[C@@H](CCCN)NC(=O)[C@H](CC(N)=O)NC1=O | Balamuthia mandrillaris | parasite growth, ATP luminescence | – | – | IC90 | > 16 µg/mL |
| COC(=O)c1cc(-c2cccc(NC(=O)Nc3cccc(Cl)c3)c2)on1 | Acinetobacter baumannii | microbial growth, broth dilution | BAA1605 | – | MIC | > 64 µg/mL |
| NCCCC[C@H]1NC(=O)[C@H](Cc2ccccc2)NC(=O)[C@H](Cc2c[nH]c3ccccc23)NC(=O)[C@@H](Cc2ccccc2)NC(=O)[C@H](Cc2ccccc2)NC(=O)[C@@H](CCCN)NC(=O)[C@H](CCCN)NC1=O | Balamuthia mandrillaris | parasite growth, ATP luminescence | – | – | IC50 | 3.67 µg/mL |
| O=C(NNc1cccc(Cl)c1)c1nnc(C23CC4CC(CC(C4)C2)C3)o1 | Fusarium oxysporum | microbial growth | – | 50 µg/mL | inhibition | 100% |
| COC(=O)c1cc(-c2cccc(NC(=O)Nc3ccc(F)cc3)c2)on1 | Mycobacteroides abscessus | microbial growth, broth dilution | ATCC19977 | 48 h | MIC | > 64 µg/mL |
| CC(C)[C@@H]1NC(=O)[C@@H](CCCCN)NC(=O)[C@H](CCCN)NC(=O)[C@@H](CCCN)NC(=O)[C@H](C)NC(=O)[C@H](Cc2c[nH]c3ccccc23)NC(=O)[C@@H](Cc2ccccc2)NC1=O | Balamuthia mandrillaris | parasite growth, ATP luminescence | – | – | IC50 | > 16 µg/mL |
| O=c1ccc2nc3ccc(OCc4ccc([N+](=O)[O-])o4)cc3oc-2c1 | Acinetobacter baumannii | microbial growth | – | 24 h | MIC | > 32 µg/mL |
| O=C(NNc1ccc(F)c(F)c1)c1nnc(C23CC4CC(CC(C4)C2)C3)o1 | Sclerotinia sclerotiorum | microbial growth | – | 50 µg/mL | inhibition | 100% |
| COC(=O)c1cc(-c2cccc(NC(=O)Nc3ccc(Cl)cc3Cl)c2)on1 | Acinetobacter baumannii | microbial growth, broth dilution | BAA1605 | – | MIC | > 64 µg/mL |
| O=C(NNc1ccc(Cl)cc1)c1nnc(C23CC4CC(CC(C4)C2)C3)o1 | Fusarium oxysporum | microbial growth | – | 50 µg/mL | inhibition | 100% |
| CC(=O)N1CCN(c2ccc(OCC3COC(Cn4ccnc4)(c4ccc(Cl)cc4Cl)O3)cc2)CC1 (stereo not drawn) | Candida albicans | microbial killing, broth dilution | 17546 | 48 h | MFC | > 64 µM |
| CC(C)[C@@H]1NC(=O)[C@@H](CCCNC(=N)N)NC(=O)[C@H]([C@@H](C)O)NC(=O)[C@@H](CCN)NC(=O)[C@H](Cc2ccccc2)NC(=O)[C@@H](Cc2ccccc2)NC1=O | Balamuthia mandrillaris | parasite growth, ATP luminescence | – | – | IC90 | 10.8 µM |
| COC(=O)c1cc(-c2cccc(NC(=O)Nc3ccc(Cl)c(C(F)(F)F)c3)c2)on1 | Acinetobacter baumannii | microbial growth, broth dilution | BAA1605 | – | MIC | > 64 µg/mL |
| CCOC(=O)COc1ccc2ccc3oc([N+](=O)[O-])cc3c2c1 | Mycolicibacterium smegmatis | microbial growth, resazurin | MC^2155 | – | MIC90 | 0.25 µg/mL (≈ 0.793 µM) |
| O=C(NNc1ccc(F)c(F)c1)c1nnc(CC23CC4CC(CC(C4)C2)C3)o1 | Fusarium oxysporum | microbial growth | – | 50 µg/mL | inhibition | 100% |

| SMILES | tested on | assay | test system | setting | measurement | value |
| --- | --- | --- | --- | --- | --- | --- |
| C#Cc1ccc(O)c(C=NNC(=O)c2ccc(Br)cc2)c1 | Aspergillus fumigatus | microbial growth | – | 48 h, pH 6.5 | MIC80 | 2 µg/mL (≈ 5.83 µM) |
| O=C(NNc1cc(F)ccc1F)c1nnc(CC23CC4CC(CC(C4)C2)C3)o1 | Fusarium oxysporum | microbial growth | – | 50 µg/mL | inhibition | 100% |
| Oc1c(Br)cc(Br)cc1-c1[nH]c(Br)c(Br)c1Br | Acinetobacter baumannii | microbial growth | ATCC19606 | – | MIC | 8 µM |
| C[C@H]1NC(=O)[C@H](Cc2c[nH]c3ccccc23)NC(=O)[C@@H](Cc2ccccc2)NC(=O)[C@@H](CCCN)NC(=O)[C@H]([C@@H](C)O)NC(=O)[C@@H](CCCN)NC(=O)[C@H](Cc2c[nH]c3ccccc23)NC(=O)[C@@H](C)NC1=O | Balamuthia mandrillaris | parasite growth, ATP luminescence | – | – | IC90 | > 16 µg/mL |
| CO/C=C(/C(=O)OC)c1ccccc1Oc1cc(Oc2ccccc2C#N)ncn1 | Fusarium oxysporum | microbial growth | – | 50 µg/mL | inhibition | 33.7% |
| C[C@H]1COc2c(N3CCN(C)CC3)c(F)cc3c(=O)c(C(=O)O)cn1c23 | Acinetobacter baumannii | microbial growth, broth dilution | BAA1605 | – | MIC | 8 µg/mL |
| [2H]c1c([2H])c([C@]2([2H])CCCN2C(=O)C(C)(C)Oc2ccc3cn[nH]c3c2)c([2H])c([2H])c1C([2H])([2H])[2H] | TNK1 (Homo sapiens, UniProt Q13470) | binding, competition with immobilised ligand | – | 1 µM | remaining binding | 100% |
| COC(=O)c1cc(-c2cccc(NC(=O)NCc3ccccc3)c2)on1 | Acinetobacter baumannii | microbial growth, broth dilution | BAA1605 | – | MIC | > 64 µg/mL |
| CC(C)C[C@H]1NC(=O)[C@H]([C@@H](C)O)NC(=O)[C@@H](CCCN)NC(=O)[C@H](CCCNC(=N)N)NC(=O)[C@@H](Cc2ccccc2)NC1=O | Balamuthia mandrillaris | parasite growth, ATP luminescence | – | – | IC50 | > 16 µg/mL |
| N=C(N)c1ccc(OCCCCCOc2ccc(C(=N)N)cc2)cc1 | Leishmania donovani | parasite growth | THP-1 | intracellular, amastigote | IC50 | 3 µg/mL |
| C[C@@H](O)[C@@H]1NC(=O)[C@@H](CCCCN)NC(=O)[C@H](CCCN)NC(=O)[C@@H](CCCN)NC(=O)[C@H](CO)NC(=O)[C@H](Cc2c[nH]c3ccccc23)NC(=O)[C@@H](Cc2c[nH]c3ccccc23)NC1=O | Balamuthia mandrillaris | parasite growth, ATP luminescence | – | – | IC90 | > 16 µg/mL |
| C#Cc1cc(O)c(C=NNC(=O)c2ccc(Br)cc2Br)cc1C#C | Aspergillus fumigatus | microbial growth | – | 48 h, pH 6.5 | MIC80 | 16 µg/mL (≈ 35.9 µM) |
| COC(=O)c1cc(-c2cccc(NC(=O)Nc3cccc(Cl)c3Cl)c2)on1 | Mycobacteroides abscessus | microbial growth, broth dilution | ATCC19977 | 48 h | MIC | > 64 µg/mL |
| C[N+]1=C2C=C(N)C(=O)c3[nH]cc(c32)CC1 | Babesia divergens | parasite growth, SYBR Green | – | 60 h, blood stage | IC50 | 0.185 µM |
| COC(=O)c1cc(-c2cccc(NC(=S)Nc3ccc(Cl)cc3)c2)on1 | Mycobacteroides abscessus | microbial growth, broth dilution | ATCC19977 | 48 h | MIC | > 64 µg/mL |
| CC(C)[C@@H]1NC(=O)[C@@H](Cc2ccccc2)NC(=O)[C@H](Cc2ccccc2)NC(=O)[C@@H]([C@H](C)O)NC(=O)[C@@H](CCCNC(=N)N)NC1=O | Balamuthia mandrillaris | parasite growth, ATP luminescence | – | – | IC90 | > 16 µg/mL |

A few entries again:
| SMILES | tested on | assay | test system | setting | measurement | value |
| --- | --- | --- | --- | --- | --- | --- |
| O=c1ccc2nc3ccc(OCc4ccc([N+](=O)[O-])o4)cc3oc-2c1 | Acinetobacter baumannii | microbial growth | – | 24 h | MIC | > 32 µg/mL |
| COC(=O)c1cc(-c2cccc(NC(=O)Nc3cccc(Cl)c3)c2)on1 | Acinetobacter baumannii | microbial growth, broth dilution | BAA1605 | – | MIC | > 64 µg/mL |
| O=C(NNc1cccc(Cl)c1)c1nnc(C23CC4CC(CC(C4)C2)C3)o1 | Fusarium oxysporum | microbial growth | – | 50 µg/mL | inhibition | 100% |
